Experimental data pooled from the literature.
Parts stem from different laboratories: compare values within a part only.
UniProt P10721, sequence (whole entry, unmodified, looked up): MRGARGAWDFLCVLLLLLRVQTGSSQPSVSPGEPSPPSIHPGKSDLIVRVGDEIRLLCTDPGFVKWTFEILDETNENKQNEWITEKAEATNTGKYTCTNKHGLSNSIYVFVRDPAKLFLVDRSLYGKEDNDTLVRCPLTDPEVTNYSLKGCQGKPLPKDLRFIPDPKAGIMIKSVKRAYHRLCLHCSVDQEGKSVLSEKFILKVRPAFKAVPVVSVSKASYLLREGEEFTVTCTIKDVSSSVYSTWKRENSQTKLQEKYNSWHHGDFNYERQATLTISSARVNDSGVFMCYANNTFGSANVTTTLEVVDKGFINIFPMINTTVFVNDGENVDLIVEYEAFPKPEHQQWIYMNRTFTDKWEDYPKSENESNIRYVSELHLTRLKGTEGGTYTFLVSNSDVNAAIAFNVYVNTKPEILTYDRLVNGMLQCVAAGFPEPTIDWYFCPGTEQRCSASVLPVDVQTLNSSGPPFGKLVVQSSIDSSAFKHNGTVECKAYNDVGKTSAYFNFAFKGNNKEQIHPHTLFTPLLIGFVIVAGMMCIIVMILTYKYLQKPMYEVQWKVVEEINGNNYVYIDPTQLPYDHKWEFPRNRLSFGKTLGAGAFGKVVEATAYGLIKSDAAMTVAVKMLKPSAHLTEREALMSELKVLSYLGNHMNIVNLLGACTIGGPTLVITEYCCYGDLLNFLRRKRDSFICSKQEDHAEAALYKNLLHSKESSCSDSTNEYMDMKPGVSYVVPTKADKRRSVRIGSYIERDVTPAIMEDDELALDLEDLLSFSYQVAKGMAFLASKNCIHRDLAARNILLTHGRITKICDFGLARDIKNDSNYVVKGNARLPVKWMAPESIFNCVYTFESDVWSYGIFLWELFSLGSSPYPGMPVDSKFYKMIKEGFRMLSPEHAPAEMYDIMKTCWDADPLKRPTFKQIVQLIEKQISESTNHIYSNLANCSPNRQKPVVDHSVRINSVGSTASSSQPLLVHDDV
UniProt P42681, sequence (whole entry, looked up): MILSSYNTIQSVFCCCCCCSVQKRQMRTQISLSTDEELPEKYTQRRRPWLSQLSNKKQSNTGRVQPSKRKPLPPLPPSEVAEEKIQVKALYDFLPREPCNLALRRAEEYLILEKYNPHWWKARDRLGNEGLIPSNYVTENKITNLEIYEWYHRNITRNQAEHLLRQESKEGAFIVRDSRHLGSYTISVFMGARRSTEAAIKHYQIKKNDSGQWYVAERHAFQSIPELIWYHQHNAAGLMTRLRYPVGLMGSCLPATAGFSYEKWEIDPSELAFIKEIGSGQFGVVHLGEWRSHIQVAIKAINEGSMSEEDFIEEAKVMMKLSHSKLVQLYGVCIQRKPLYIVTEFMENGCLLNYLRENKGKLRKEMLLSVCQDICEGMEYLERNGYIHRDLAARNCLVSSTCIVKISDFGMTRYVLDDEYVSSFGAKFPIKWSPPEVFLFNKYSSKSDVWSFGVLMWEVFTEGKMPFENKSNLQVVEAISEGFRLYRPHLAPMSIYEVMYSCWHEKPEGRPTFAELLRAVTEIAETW
UniProt P0C1S8, sequence (whole entry, looked up): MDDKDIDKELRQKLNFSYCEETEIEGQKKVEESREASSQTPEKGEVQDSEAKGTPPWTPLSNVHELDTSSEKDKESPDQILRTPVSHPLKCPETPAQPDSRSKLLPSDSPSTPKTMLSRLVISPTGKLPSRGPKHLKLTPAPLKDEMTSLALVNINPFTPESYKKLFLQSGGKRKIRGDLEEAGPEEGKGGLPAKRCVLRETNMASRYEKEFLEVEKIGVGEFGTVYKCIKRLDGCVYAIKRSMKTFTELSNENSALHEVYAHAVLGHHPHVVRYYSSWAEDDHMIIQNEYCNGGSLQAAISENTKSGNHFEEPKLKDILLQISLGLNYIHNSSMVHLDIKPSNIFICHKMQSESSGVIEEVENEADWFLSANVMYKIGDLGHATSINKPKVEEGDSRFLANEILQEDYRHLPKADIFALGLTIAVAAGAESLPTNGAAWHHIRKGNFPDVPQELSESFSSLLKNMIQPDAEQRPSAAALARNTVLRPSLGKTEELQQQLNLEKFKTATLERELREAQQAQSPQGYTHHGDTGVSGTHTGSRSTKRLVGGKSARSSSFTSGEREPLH
UniProt Q9UEE5, sequence (whole entry, looked up): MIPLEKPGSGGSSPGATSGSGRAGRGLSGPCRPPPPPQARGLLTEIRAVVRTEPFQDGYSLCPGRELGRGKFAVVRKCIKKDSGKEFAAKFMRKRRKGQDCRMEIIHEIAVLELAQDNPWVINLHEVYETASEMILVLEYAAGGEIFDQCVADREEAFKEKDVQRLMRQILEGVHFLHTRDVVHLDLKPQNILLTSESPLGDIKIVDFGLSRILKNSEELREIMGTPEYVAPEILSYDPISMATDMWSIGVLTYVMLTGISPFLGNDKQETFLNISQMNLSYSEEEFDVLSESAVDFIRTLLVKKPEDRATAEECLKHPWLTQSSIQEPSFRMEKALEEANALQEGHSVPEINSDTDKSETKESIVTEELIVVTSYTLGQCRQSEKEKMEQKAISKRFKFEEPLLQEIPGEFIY
UniProt P0C264, sequence (whole entry, looked up): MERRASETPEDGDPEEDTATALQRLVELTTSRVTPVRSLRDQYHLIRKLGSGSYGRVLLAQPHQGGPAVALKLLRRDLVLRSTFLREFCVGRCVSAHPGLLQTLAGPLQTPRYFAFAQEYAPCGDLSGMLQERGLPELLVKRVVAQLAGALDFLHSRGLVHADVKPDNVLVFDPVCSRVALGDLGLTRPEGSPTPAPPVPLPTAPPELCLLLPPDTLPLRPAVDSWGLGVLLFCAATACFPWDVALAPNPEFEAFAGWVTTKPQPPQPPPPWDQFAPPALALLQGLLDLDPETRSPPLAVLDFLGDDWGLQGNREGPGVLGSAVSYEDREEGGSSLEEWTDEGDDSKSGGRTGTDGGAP
UniProt P41240, sequence (whole entry, looked up): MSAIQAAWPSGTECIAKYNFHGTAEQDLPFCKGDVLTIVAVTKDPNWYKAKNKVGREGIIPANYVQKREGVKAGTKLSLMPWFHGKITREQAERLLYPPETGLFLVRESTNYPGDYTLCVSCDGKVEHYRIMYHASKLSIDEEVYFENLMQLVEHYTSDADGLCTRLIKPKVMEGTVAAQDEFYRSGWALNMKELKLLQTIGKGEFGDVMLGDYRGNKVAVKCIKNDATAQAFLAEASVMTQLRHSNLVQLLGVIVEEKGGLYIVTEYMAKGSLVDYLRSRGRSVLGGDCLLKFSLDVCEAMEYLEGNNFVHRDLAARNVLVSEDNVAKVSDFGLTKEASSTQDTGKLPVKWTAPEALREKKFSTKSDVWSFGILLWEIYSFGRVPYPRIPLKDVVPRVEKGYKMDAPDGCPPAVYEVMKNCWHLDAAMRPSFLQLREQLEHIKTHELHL
UniProt Q86UX6, sequence (whole entry, looked up): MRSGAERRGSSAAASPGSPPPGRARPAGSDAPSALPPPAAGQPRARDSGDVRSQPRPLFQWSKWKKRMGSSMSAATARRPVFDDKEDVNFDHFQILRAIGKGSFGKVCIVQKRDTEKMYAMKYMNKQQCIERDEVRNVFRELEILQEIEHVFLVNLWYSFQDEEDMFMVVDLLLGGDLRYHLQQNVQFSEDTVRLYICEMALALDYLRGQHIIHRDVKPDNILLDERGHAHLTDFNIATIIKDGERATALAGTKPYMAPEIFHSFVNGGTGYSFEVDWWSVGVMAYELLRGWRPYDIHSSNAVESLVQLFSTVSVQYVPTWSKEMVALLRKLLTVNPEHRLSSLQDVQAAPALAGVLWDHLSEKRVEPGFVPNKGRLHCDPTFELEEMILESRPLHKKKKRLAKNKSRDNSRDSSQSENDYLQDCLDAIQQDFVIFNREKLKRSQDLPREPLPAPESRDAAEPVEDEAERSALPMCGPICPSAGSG
UniProt Q8NG66, sequence (whole entry, looked up): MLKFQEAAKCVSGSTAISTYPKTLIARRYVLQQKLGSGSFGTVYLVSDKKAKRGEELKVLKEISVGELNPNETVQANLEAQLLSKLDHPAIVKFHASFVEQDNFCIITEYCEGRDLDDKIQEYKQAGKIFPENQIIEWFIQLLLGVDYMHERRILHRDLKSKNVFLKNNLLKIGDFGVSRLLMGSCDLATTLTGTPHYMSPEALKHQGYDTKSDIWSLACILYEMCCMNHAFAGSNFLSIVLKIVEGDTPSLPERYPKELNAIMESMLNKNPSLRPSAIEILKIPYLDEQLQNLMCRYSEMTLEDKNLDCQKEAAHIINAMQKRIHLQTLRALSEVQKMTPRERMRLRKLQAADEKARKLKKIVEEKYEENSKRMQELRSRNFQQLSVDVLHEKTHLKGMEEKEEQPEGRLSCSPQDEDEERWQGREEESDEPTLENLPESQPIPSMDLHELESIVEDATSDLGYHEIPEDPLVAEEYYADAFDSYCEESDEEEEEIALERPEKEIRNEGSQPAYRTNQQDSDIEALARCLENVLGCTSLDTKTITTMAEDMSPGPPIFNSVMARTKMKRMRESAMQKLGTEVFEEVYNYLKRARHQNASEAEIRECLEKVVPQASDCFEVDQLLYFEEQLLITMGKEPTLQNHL

Set 1
Target: Calcium/calmodulin-dependent protein kinase type II subunit alpha (CAMK2A, Homo sapiens, UniProt Q9UQM7)
UniProt Q9UQM7, sequence (whole entry, looked up): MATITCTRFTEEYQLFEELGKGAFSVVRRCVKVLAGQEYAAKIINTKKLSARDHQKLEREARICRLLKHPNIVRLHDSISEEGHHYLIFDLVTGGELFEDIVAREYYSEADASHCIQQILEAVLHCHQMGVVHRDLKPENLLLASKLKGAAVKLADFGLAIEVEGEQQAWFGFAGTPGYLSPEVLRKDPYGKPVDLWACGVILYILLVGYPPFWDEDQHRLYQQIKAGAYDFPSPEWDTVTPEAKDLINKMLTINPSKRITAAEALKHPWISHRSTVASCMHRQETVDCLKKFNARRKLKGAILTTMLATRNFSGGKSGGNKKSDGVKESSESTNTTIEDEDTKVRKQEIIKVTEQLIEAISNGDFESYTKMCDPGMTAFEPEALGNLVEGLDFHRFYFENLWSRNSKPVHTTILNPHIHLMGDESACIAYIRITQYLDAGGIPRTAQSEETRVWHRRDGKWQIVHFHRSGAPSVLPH
Read-out: enzyme activity
Action: inhibitor
Tested at: 10 µM
SMILES | inhibition
C=C(C)[C@@H]1CC[C@]2(C(=O)O)CC[C@]3(C)[C@H](CC[C@@H]4[C@@]5(C)CC[C@H](O[C@@H]6OC[C@H](O)[C@H](O)[C@H]6O[C@@H]6O[C@@H](C)[C@H](O)[C@@H](O)[C@H]6O)[C@@](C)(CO)[C@@H]5CC[C@]43C)[C@@H]12 | 4%
C=Cc1c(C)c2cc3nc(c(CC(=O)N[C@@H](CC(=O)O)C(=O)O)c4[nH]c(cc5nc(cc1[nH]2)C(C)=C5CC)c(C)c4C(=O)O)[C@@H](CCC(=O)O)[C@@H]3C | -2%
CC(C)(N)C(=O)O | 6%
CN(C)c1ccc(O)c2c1C[C@H]1C[C@H]3[C@H](N(C)C)C(O)=C(C(N)=O)C(=O)[C@@]3(O)C(O)=C1C2=O | 2%
CC(N)=O | -10%
C[C@@H]1O[C@@H](O[C@H]2[C@H](O)[C@@H](O)[C@H](O[C@H]3CC[C@]4(C)[C@H]5C=C[C@]67OC[C@@]8(CCC(C)(C)C[C@H]86)[C@@H](O)C[C@@]7(C)[C@]5(C)CC[C@H]4C3(C)C)O[C@@H]2CO[C@@H]2O[C@H](CO)[C@@H](O)[C@H](O)[C@H]2O)[C@H](O)[C@H](O)[C@H]1O | 8%
COc1c(/C=C/C(=O)c2ccc(O)cc2)ccc(O)c1O | -10%
CCOC(=O)c1c(CSc2ccccc2)n(C)c2cc(Br)c(O)c(CN(C)C)c12 | -4%
C[C@@H]1O[C@@H](OC[C@H]2O[C@@H](Oc3cc(O)c4c(=O)cc(-c5ccc(O)cc5)oc4c3)[C@H](O[C@@H]3O[C@@H](C)[C@H](O)[C@@H](O)[C@H]3O)[C@@H](O)[C@@H]2O)[C@H](O)[C@H](O)[C@H]1O | -9%
Cn1cnc2c(ncn2[C@@H]2O[C@H](CO)[C@@H](O)[C@H]2O)c1=N | 28%
c1cc2c(cc1O[C@H]1OC[C@H]3[C@@H]1CO[C@@H]3c1ccc3c(c1)OCO3)OCO2 | 34%
COC1=C(OC)C(=O)C(C/C=C(\C)CC/C=C(\C)CC/C=C(\C)CC/C=C(\C)CC/C=C(\C)CC/C=C(\C)CC/C=C(\C)CC/C=C(\C)CCC=C(C)C)=C(C)C1=O | -7%
CC(C)(Sc1cc(C(C)(C)C)c(O)c(C(C)(C)C)c1)Sc1cc(C(C)(C)C)c(O)c(C(C)(C)C)c1 | -1%
Cc1cc(O)cc(C)c1O | -23%
CC(C)=C/C=C1\O[C@@H]2CC(C)=CC(=O)[C@@H]2[C@]1(C)O | -19%
O=C(O)C1=C(CSc2nnnn2CS(=O)(=O)O)CS[C@@H]2[C@H](NC(=O)[C@H](O)c3ccccc3)C(=O)N12 | -6%

Set 2
Target: Diamine acetyltransferase 1 (Homo sapiens, UniProt P21673)
Action: inhibitor
Tested at: 10 µM
Baseline: control
Target sequence (P21673 1-171): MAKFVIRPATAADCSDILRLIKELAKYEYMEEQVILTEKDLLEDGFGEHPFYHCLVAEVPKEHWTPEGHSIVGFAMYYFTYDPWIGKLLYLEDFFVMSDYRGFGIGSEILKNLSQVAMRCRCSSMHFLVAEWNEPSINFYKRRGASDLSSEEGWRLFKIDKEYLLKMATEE
Compound | remaining activity
COc1ccc(C2COc3cc(O)ccc3C2)c(O)c1OC (centres unmarked) | 68.4%
C=CCc1ccc(O)c(-c2ccc(O)c(CC=C)c2)c1 | 95.8%
CCCCCCCCCCCCCCCCCCO | 97.6%
Cc1cc2nc3c(=O)[nH]c(=O)nc-3n(C[C@H](O)[C@H](O)[C@H](O)CO)c2cc1C | 100%
C=Cc1ccc(O)c(OC)c1 | 96.9%
COc1c(CC=C(C)C)c(O)cc2oc(=O)c(-c3ccc(O)cc3O)cc12 | 92.7%
COc1ccc(-c2coc3cc(O[C@@H]4O[C@H](CO)[C@@H](O)[C@H](O)[C@H]4O)ccc3c2=O)cc1 | 97.4%
COc1cc([C@H]2Oc3c(OC)cc(CCCO)cc3[C@@H]2CO)ccc1O | 92.1%
C[C@@H]1OC(O)[C@H](O)[C@H](O)[C@H]1O (some centres unmarked) | 100%
CC(=O)CC/C=C(\C)CCC=C(C)C | 92.7%
COc1ccc(-c2coc3cc(O)c(OC)c(O)c3c2=O)cc1O | 82.1%
COc1cc(-c2oc3cc(O)cc(O)c3c(=O)c2O[C@@H]2O[C@H](CO)[C@@H](O)[C@H](O)[C@H]2O)ccc1O | 110%
C[C@@H]1O[C@@H](OC[C@H]2O[C@@H](Oc3c(-c4ccc(O)cc4)oc4cc(O[C@@H]5O[C@@H](C)[C@H](O)[C@@H](O)[C@H]5O)cc(O)c4c3=O)[C@H](O)[C@@H](O)[C@H]2O)[C@H](O)[C@H](O)[C@H]1O | 98.1%
COc1cc(/C=C/CO)cc(OC)c1O[C@@H]1O[C@H](CO)[C@@H](O)[C@H](O)[C@H]1O | 82.5%
CCCCCCCC/C=C\CCCCCCCCCCCCCC(=O)O | 95.5%

Set 3
Target: Cyclin-dependent kinase 2, with cyclin E (CDK2, Homo sapiens, UniProt P24941)
Read-out: enzyme activity
Action: inhibitor
Tested at: 0.5 µM
Baseline: control
Structure (SMILES) | remaining activity
C[C@@H]1CCN(C(=O)CC#N)C[C@@H]1N(C)c1ncnc2[nH]ccc12 | 90.7%
CCOc1nc(NC(=O)Cc2cc(OC)ccc2OC)cc(N)c1C#N | 88.9%
Ic1cccc(CSc2nnc(-c3ccncc3)o2)c1 | 102%
COc1cc2ncnc(Nc3cccc(Cl)c3)c2cc1OC | 90.4%
Cc1cn(-c2cc(NC(=O)c3ccc(C)c(Nc4nccc(-c5cccnc5)n4)c3)cc(C(F)(F)F)c2)cn1 | 98.9%
Nc1cccc(-c2cc3c(Oc4cccc(O)c4)ncnc3[nH]2)c1 | 90%
Cc1cc2ncc(-c3ccccc3)nc2cc1C | 91.8%
O=C(Nc1cccc(Nc2nccc(Nc3cccc(C(F)(F)F)c3)n2)c1)C1CC1 | 85.1%
COc1cc2ncnc(Nc3ccc(O)c(Br)c3)c2cc1OC | 95.7%
CCN(CC)C(=O)c1ccc(Nc2nc(OCC3CCCCC3)c3[nH]cnc3n2)cc1 | 76.5%
Cn1nc2c3c(cccc31)C(=O)c1ccccc1-2 | 89.4%
O=C(NC(NC(=S)Nc1ccc(F)c([N+](=O)[O-])c1)C(Cl)(Cl)Cl)C(c1ccccc1)c1ccccc1 (centres unmarked) | 89.2%
O=C1c2ccccc2-[n+]2ccc3c([nH]c4ccccc43)c21 | 80.3%
CN(C)C[C@H]1CCn2c(c(C3=C(c4cn(C)c5ccccc45)C(=O)NC3=O)c3ccccc32)C1 | 64.4%
c1ccc(-c2cnc(Nc3ccc(OCCN4CCCC4)cc3)s2)cc1 | 85.7%
Cc1nc2cc3nc(-c4cccs4)cnc3cc2n1C | 91.4%
O=C1c2ccccc2-c2n[nH]c3cccc1c23 | 79.5%
N#C/C(=C\c1ccc(O)c(O)c1)C(=O)NCc1ccccc1 | 96.4%
CCN(CC)CCNC(=O)c1c(C)[nH]c(/C=C2\C(=O)Nc3ccc(Cl)cc32)c1C | 90%
O=c1cc(-c2cccc3c2Sc2ccccc2S3)oc(N2CCOCC2)c1 | 84.6%
O=C1C(Cl)=C(N2C(=O)CCC2=O)C(=O)c2ccccc21 | 90.3%
CN([C@@H](Cc1ccc(OS(=O)(=O)c2cccc3cnccc23)cc1)C(=O)N1CCN(c2ccccc2)CC1)S(=O)(=O)c1cccc2cnccc12 | 94.9%
c1ccc(-c2[nH]ncc2-c2ccnc3ccccc23)nc1 | 91.3%

Set 4
SMILES: O=C(O)[C@@H]1[C@@H](Cn2nnc3ccccc3c2=O)CC[C@H]1C(=O)c1ccc(OCCC2CCOCC2)cc1
Method: competition with immobilised ligand
Tested at: 1 µM
target | read-out | remaining binding [%]
WEE2 (Homo sapiens, UniProt P0C1S8) | cell-free assay | 100
STK32C (Homo sapiens, UniProt Q86UX6) | cell-free assay | 100
MAP3K10 (Homo sapiens, UniProt Q02779) | cell-free assay | 100
PRKACA (Homo sapiens, UniProt P17612) | cell-free assay | 90
NEK11 (Homo sapiens, UniProt Q8NG66) | cell-free assay | 100
EGFR (Homo sapiens, UniProt P00533, G719S) | cell-free assay | 88
KIT (Homo sapiens, UniProt P10721, T670I/V559D) | cell-free assay | 98
STK17A (Homo sapiens, UniProt Q9UEE5) | cell-free assay | 98
DAPK2 (Homo sapiens, UniProt Q9UIK4) | cell-free assay | 100
CSK (Homo sapiens, UniProt P41240) | cell-free assay | 90
ERBB2 (Homo sapiens, UniProt P04626) | cell-free assay | 100
FGR (Homo sapiens, UniProt P09769) | cell-free assay | 100
TNIK (Homo sapiens, UniProt Q9UKE5) | cell-free assay | 93
PAK3 (Homo sapiens, UniProt O75914) | cell-free assay | 99
PIK3CA (Homo sapiens, UniProt P42336, E545A) | cell-free assay | 100
SBK3 (Homo sapiens, UniProt P0C264) | cell-free assay | 43
TXK (Homo sapiens, UniProt P42681) | binding | 94

A few entries again (set 4):
target | read-out | remaining binding [%]
PRKACA (Homo sapiens, UniProt P17612) | cell-free assay | 90
NEK11 (Homo sapiens, UniProt Q8NG66) | cell-free assay | 100
EGFR (Homo sapiens, UniProt P00533, G719S) | cell-free assay | 88
KIT (Homo sapiens, UniProt P10721, T670I/V559D) | cell-free assay | 98
STK17A (Homo sapiens, UniProt Q9UEE5) | cell-free assay | 98
DAPK2 (Homo sapiens, UniProt Q9UIK4) | cell-free assay | 100
CSK (Homo sapiens, UniProt P41240) | cell-free assay | 90
ERBB2 (Homo sapiens, UniProt P04626) | cell-free assay | 100
